# Assay results from different studies.
# Protocols differ between the studies behind these lines.
SMILES,species,sample,route,dose,notes,measurement,result
CC(C)(C)C(=O)Nc1ccc2[nH]c(CN3CCC(N(CCCN4CCOCC4)CC4OC(n5cnc6c(N)ncnc65)C(O)C4O)CC3)nc2c1 (stereo not shown),male Sprague-Dawley rat,plasma,intravenous,20 mg/kg,,MRT,1.14 h
COC(=O)/C=C/C(=O)c1ccc(OC)cc1,Sprague-Dawley rat,plasma,oral,200 mg/kg,,MRT,13.1 h
COc1cc(NC(C)=O)c2c(c1O)-c1c(OC)c(OC)cc3c1C(C2)N(C)CC3 (stereo not shown),male Wistar rat,plasma,oral,200 mg/kg,,MRT(0-t),3.7 h
O=C(N[C@@H](CC1CCCCC1)C(=O)N[C@@H](C[C@H]1CCNC1=O)C(=O)C(=O)NC1CC1)OCc1cccc(Cl)c1,female Sprague-Dawley rat,plasma,intravenous,10 mg/kg,,MRT,5.55 h
Cn1cc(-c2cc(N3CCCCS3(=O)=O)ccc2N[C@H]2CC[C@H](C)CC2)c2cc[nH]c2c1=O (stereo in doubt),Sprague-Dawley rat,plasma,oral,3 mg/kg,,MRT(0-inf),1.54 h
COCCCN1CCc2c(Cc3ccc(Cl)cc3)[nH]c3c(OC(F)F)ccc(c23)C1=O,male Sprague-Dawley rat,blood,intravenous,2.5 mg/kg,,MRT(0-t),2.34 h
CCCN(c1ccc(C(=O)NCCC(=O)O)cc1)S(=O)(=O)c1cc(C)c(-c2ccc(C(C)(C)C)cc2)c(C)c1,rat,plasma,oral,5 mg/kg,,MRT,3.05 h
Cn1cc(-c2cc(N3CCCS3(=O)=O)ccc2N[C@H]2CC[C@H](C)CC2)c2cc[nH]c2c1=O,Sprague-Dawley rat,plasma,oral,3 mg/kg,,MRT(0-inf),3.49 h
Cc1cc(/C=C2\CN(C(C)C)C/C(=C\c3cc(C)c(O)c(C)c3)C2=O)cc(C)c1O,female Sprague-Dawley rat,plasma,intravenous,20 mg/kg,,MRT(0-t),2.95 h
N#Cc1cnc2cc(OCC3CCNCC3)c(F)cc2c1Nc1cc(F)c(OCc2cccc(Cl)n2)cc1Cl,male Sprague-Dawley rat,plasma,oral,100 mg/kg,,MRT,8.8 h
"CNC(=O)N[C@]1(C)CCC[C@@]2(C)C3CC[C@@]4(C)C[C@]3(CCC21)CC4=O (single isomer, unassigned)",male Sprague-Dawley rat,plasma,oral,2 mg/kg,,MRT(0-inf),1.68 h
COc1ccc(S(=O)(=O)N2CCc3ccccc3C2)cc1N1CCN(C(=O)c2ccc(F)cc2C(F)(F)F)CC1,rat,plasma,intravenous,10 mg/kg,single dose,MRT,0.72 h
O=c1c2cc(Cl)ccc2sc2c(NCc3ccccc3)nc3ccccc3c12,male Sprague-Dawley rat,plasma,intravenous,3 mg/kg,single dose,MRT,2.56 h
CSCOC1C(=O)C2(C)C(OCSC)CC3OCC3(OC(C)=O)C2C(OC(=O)c2ccccc2)C2(O)CC(OC(=O)C(O)C(C=C(C)C)NC(=O)OC(C)(C)C)C(C)=C1C2(C)C (stereo not shown),male Sprague-Dawley rat,plasma,intravenous,4 mg/kg,,MRT(0-t),6 h
Nc1nc(Cl)nc2c1ncn2Cc1cc(OCC(F)F)cc(OC(F)F)c1,Sprague-Dawley rat,plasma,intravenous,2.5 mg/kg,,MRT(0-t),7.81 h
CN1CCN(c2ccc(Nc3ncc(Cl)c(Nc4ccccc4P(C)(C)=O)n3)cc2Br)CC1,male Sprague-Dawley rat,plasma,oral,25 mg/kg,,MRT(0-inf),22.8 h

# Some of these lines once more:
SMILES,species,sample,route,dose,notes,measurement,result
CCCN(c1ccc(C(=O)NCCC(=O)O)cc1)S(=O)(=O)c1cc(C)c(-c2ccc(C(C)(C)C)cc2)c(C)c1,rat,plasma,oral,5 mg/kg,,MRT,3.05 h
